Measurements pooled from the literature.
Each numbered part is a random draw from the data of one study; scales do not carry over between parts.

Study 1
Target: Centromere-binding protein 1, full length, His-tagged (CBF1, Saccharomyces cerevisiae, UniProt P17106, residues 1-351)
Sequence of UniProt P17106 (whole entry, looked up): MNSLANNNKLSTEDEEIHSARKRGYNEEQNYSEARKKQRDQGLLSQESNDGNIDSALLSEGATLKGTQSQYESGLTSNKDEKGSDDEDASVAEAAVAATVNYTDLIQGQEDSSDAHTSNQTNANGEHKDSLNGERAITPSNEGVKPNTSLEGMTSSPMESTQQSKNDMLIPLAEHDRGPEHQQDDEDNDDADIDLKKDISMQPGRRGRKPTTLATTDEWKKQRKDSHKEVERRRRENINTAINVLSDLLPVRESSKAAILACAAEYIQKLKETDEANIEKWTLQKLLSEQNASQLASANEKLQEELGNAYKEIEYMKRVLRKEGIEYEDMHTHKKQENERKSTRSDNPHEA
Technique: competition protein-binding microarray
Form: double-stranded DNA, one strand shown
Medium: in vitro
Concentration: 2 µM
Setting: whole 60-bp probe, lowest competitor level
Together with: Pho4 competitor, 0.05 µM
Reading: higher = stronger binding
Measurement: fluorescence intensity
TGCGCAACAACTTGTTCGGTGGGTGTATGTCTAGAAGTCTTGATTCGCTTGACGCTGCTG: 65.4 a.u.
CGTCCTAGTGATTGTGTTGTGGGTGCCATGAGGAAGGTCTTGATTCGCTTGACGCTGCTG: 87.8 a.u.
GAGACGGACGAGAGTGACGTGCTTTGGGTTGAGACGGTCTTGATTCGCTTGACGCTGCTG: 76.1 a.u.
CTAACGAAGGTTTCGCACGTGTTTTACAAGCCAAGTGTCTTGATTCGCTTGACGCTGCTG: 1470 a.u.
AGACAAAGTTTGGTGGGCGTGGGACGAAGAATTCAGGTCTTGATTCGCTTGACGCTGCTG: 67.5 a.u.
TTGGAGCAGAACAAACACCTGATGACGCGGAAGACGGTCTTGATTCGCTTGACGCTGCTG: 162 a.u.
TGAAGAAGGGTAAATCTCGTGATGGAAATGTTCCTGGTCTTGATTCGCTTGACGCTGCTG: 466 a.u.
GCCCGCCGGCGACGTCACGCGGCCGTTACGGCGCTCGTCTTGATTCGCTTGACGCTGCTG: 218 a.u.

Study 2
Target: Replicase polyprotein 1ab, nsp13 helicase (rep, Severe acute respiratory syndrome coronavirus 2, UniProt P0DTD1)
Action: inhibitor
Concentration: 20 µM
Measurement: inhibition
CN1CCCN=C1COC(=O)C(O)(c1ccccc1)C1CCCCC1 (stereo not drawn): 0.28%
N#CCC(=O)c1ccccc1: 2.78%
CC(=O)c1cc2c(o1)C(=O)c1ccccc1C2=O: 8.36%
O=C1[C@@H]2[C@H]3CC[C@H](C3)[C@@H]2C(=O)N1C[C@@H]1CCCC[C@H]1CN1CCN(c2nsc3ccccc23)CC1: 7.38%
CN1CCC2=C(C1)c1ccccc1Cc1ccccc12: 6.11%
N[C@@H]1c2cccnc2[C@H](OC(=O)N2CCC(n3c(=O)[nH]c4ncccc43)CC2)CC[C@H]1c1cccc(F)c1F: -0.04%
O=C(CCCN1CCC2(CC1)C(=O)N(Cc1cccc(F)c1)CN2c1ccccc1)c1ccc(F)cc1: 7.3%
O=C(O)C(O)[C@H](O)[C@@H](O)[C@H](O)[C@H](O)CO (stereo partly drawn): 0.64%
COc1cc(C)nc(-n2nc(C)cc2OC)n1: 0.48%
C[C@]1(Cn2ccnn2)[C@H](C(=O)O)N2C(=O)C[C@H]2S1(=O)=O: 0.73%
CCC(C)N(C)C(=O)c1cc2ccccc2c(-c2ccccc2Cl)n1 (stereo not drawn): 4.94%
COC(=O)/C=C/C(=O)N[C@@H]1CC[C@@]2(O)[C@H]3Cc4ccc(O)c5c4[C@@]2(CCN3CC2CC2)[C@H]1O5: 4.76%
CC1(CN)Cc2ccccc2C1: -2.57%
CCN(CC)CCOc1ccc(Nc2ncc3cc(-c4c(Cl)cccc4Cl)c(=O)n(C)c3n2)cc1: 11.7%
CC(C)=CCC[C@]1(C)C=Cc2c(O)c3c(c(CC=C(C)C)c2O1)O[C@]12C(=C[C@@H]4C[C@H]1C(C)(C)O[C@@]2(C/C=C(/C)C(=O)O)C4=O)C3=O: 21.6%
CN(NC(=O)CC(=O)NN(C)C(=S)c1ccccc1)C(=S)c1ccccc1: 0.15%
CCOCC(O)COc1ccc(NC(=O)CC[S+](C)C)cc1 (stereo not drawn): 8.45%
O=C(NCc1ccc2c(c1)OCO2)c1c(Cl)cccc1Cl: 0.2%
c1ccc(C[C@H](c2ccccc2)N2CCCCC2)cc1 (racemic): 3.16%
O=C(NCCCNc1nc(Nc2cccc(NC(=O)N3CCCC3)c2)ncc1I)c1cccs1: 9.32%
N[C@@H](Cn1oc(=O)[nH]c1=O)C(=O)O: 3.73%
O=C(C1CCCCC1)N1CC(=O)N2CCc3ccccc3C2C1 (stereo not drawn): 5.64%
CCCCCCCCCCCCCCCCO: 6.91%
NCC(O)(CS(=O)(=O)O)c1ccc(Cl)cc1 (stereo not drawn): 0.7%
CC1CCN(CCCC(=O)c2ccc(F)cc2)CC1: 5.37%

Study 3
Organism: SARS-CoV-2
Read-out: cytopathic effect
Cells: Vero E6
Concentration: 10 µM
Measurement: inhibition
c1ccc2sc(SN3CCOCC3)nc2c1: 1.9%
CSc1ccc(C(=O)c2[nH]c(=O)[nH]c2C)cc1: 5.8%
O=C(C=Cc1ccc(O)c2c1C(C(=O)OC(Cc1ccc(O)c(O)c1)C(=O)O)C(c1ccc(O)c(O)c1)O2)OC(Cc1ccc(O)c(O)c1)C(=O)O (stereo not drawn): -5.1%
CC(C)(C)OC(=O)NCCc1nnc(S(=O)(=O)Cc2ccc(Cl)cc2Cl)o1: -4.5%
O=c1c(O)cccc2cc(O)c(O)c(O)c12: 1.2%
O=c1c2ccccc2[se]n1-c1ccccc1: -2.9%

Study 4
Cell line: HEK-293T
Read-out: pseudovirus infection
Technique: FDA-approved drug library screen
Organism: VSV pseudotyped with SARS-CoV-2 spike
Concentration: 10 µM
Time: 16 h
Reference: vehicle-treated
Measurement: GFP-positive cells
CC1(C)S[C@@H]2[C@H](NC(=O)C(C(=O)O)c3ccccc3)C(=O)N2[C@H]1C(=O)O (stereo partly drawn): 67.4%
O=C1CN2Cc3c(ccc(Cl)c3Cl)N=C2N1: 87.1%
Cc1ccc(Sc2ccccc2N2CCNCC2)c(C)c1: 47.2%
C=CC1=C(C(=O)O)N2C(=O)[C@@H](NC(=O)/C(=N\OCC(=O)O)c3csc(N)n3)[C@H]2SC1: 81.6%

Study 5
Target: Sal-like protein 4, full length isoform B (SALL4, Homo sapiens, UniProt Q9UJQ4-2, residues 1-616)
Technique: universal PBM
Form: double-stranded DNA, one strand shown
Medium: in vitro
Concentration: not given
Setting: 8-mer, flanks averaged, mean of replicates
Reading: higher = stronger binding
Measurement: E-score
GGCTGCCA: -0.254
TCAAGGCA: -0.0433
CGAAACGC: -0.236
AGTTGTAT: 0.196
TCACTTAA: 0.216
AGTGATAA: 0.254
CTTCCACC: -0.0183
CTGGCAAC: -0.27

A few entries again (study 1):
TGCGCAACAACTTGTTCGGTGGGTGTATGTCTAGAAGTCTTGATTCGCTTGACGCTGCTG: 65.4 a.u.
CGTCCTAGTGATTGTGTTGTGGGTGCCATGAGGAAGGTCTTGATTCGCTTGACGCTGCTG: 87.8 a.u.
GAGACGGACGAGAGTGACGTGCTTTGGGTTGAGACGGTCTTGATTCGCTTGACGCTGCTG: 76.1 a.u.
CTAACGAAGGTTTCGCACGTGTTTTACAAGCCAAGTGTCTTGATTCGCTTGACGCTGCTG: 1470 a.u.
AGACAAAGTTTGGTGGGCGTGGGACGAAGAATTCAGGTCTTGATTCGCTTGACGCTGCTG: 67.5 a.u.
TTGGAGCAGAACAAACACCTGATGACGCGGAAGACGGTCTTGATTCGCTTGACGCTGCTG: 162 a.u.
TGAAGAAGGGTAAATCTCGTGATGGAAATGTTCCTGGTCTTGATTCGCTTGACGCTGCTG: 466 a.u.
